Assay results from different studies.
± gives the spread as reported.
HDAC6 ZnF-UBD domain: Protein deacetylase HDAC6, ZnF-UBD domain (HDAC6, Homo sapiens, UniProt Q9UBN7)
UniProt Q9UBN7, sequence (whole entry, looked up): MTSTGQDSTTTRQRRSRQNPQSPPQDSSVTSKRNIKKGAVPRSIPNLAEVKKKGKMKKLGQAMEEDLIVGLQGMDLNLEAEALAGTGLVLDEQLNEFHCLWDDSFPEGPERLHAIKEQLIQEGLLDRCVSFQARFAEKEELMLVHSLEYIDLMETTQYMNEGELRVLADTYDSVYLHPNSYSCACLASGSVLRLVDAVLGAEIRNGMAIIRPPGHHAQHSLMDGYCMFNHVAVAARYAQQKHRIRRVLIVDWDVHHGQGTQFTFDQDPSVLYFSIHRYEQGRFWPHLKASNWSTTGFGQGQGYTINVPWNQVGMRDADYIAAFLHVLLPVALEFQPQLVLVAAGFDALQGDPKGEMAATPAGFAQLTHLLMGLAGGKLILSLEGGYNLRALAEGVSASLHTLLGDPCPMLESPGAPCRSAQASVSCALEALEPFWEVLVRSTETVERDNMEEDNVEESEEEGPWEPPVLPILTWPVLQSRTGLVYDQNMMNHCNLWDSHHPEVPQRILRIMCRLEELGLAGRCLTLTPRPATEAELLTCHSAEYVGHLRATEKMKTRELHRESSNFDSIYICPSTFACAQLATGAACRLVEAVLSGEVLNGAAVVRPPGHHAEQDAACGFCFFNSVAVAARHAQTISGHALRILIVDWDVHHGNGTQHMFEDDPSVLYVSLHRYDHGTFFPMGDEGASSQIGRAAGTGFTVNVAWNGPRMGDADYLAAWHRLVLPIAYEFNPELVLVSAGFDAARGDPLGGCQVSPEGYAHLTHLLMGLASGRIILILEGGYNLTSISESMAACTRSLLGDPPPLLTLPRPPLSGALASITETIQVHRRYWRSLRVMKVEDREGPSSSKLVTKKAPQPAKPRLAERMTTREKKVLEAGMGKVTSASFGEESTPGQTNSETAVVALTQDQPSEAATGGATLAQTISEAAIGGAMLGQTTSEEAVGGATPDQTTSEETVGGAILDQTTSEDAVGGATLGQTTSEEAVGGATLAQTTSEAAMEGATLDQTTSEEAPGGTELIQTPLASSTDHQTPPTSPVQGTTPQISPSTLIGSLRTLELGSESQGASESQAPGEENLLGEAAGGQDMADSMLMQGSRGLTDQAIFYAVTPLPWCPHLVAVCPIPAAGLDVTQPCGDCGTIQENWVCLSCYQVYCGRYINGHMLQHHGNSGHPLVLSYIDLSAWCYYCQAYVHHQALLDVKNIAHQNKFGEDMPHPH
UniProt P50613, sequence (whole entry, looked up): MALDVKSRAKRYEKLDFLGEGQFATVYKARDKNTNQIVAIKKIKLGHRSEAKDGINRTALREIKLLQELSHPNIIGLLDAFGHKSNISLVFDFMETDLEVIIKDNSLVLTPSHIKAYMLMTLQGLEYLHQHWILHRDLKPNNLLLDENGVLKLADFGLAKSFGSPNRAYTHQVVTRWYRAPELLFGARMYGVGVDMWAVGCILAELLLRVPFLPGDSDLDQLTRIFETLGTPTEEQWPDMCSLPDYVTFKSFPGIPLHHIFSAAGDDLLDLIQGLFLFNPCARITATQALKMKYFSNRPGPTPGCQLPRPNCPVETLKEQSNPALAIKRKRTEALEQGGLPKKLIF

Structure (SMILES)	tested on	assay	test system	conditions	how to read	measurement	value
CCCCOc1nc(N)c2c(n1)N(Cc1cccc(CN3CCCC3)c1)CC(=O)N2	–	–	human	oral, 2 mg, drug interaction trial	–	any TEAE	13.3%
CCOc1c([C@H](C)n2nc(C)c3c(N)ncnc32)cc(Cl)c(F)c1[C@@H]1CNC(=O)C1	–	–	human patients, plasma	oral, 45 mg once daily, cycle 1 day 15, monotherapy, geometric mean	–	Cmin	0.706 µM
Cc1c(-c2ccc(N3CCc4cccc(C(=O)Nc5nc6ccccc6s5)c4C3)nc2C(=O)O)cnn1CC12CC3(C)CC(C)(C1)CC(OCCNCC[C@H](O)CO)(C3)C2	–	–	beagle dog, male, anaesthetised	intravenous infusion, 0.3 mg/kg/min, 105 min	baseline: vehicle	QRS duration change	-2 ms
CCC(CC)[C@H]1COC[C@@H](c2cccc(Br)c2)N1	–	shake-flask, LC-HRMS	aqueous buffer	16 h, pH 6.8	–	solubility	< 4 µM
C[C@H](CCC(=O)NCC(=O)O)[C@H]1CC[C@H]2[C@@H]3CC[C@@H]4C[C@H](OS(=O)(=O)O)CC[C@]4(C)[C@H]3C[C@H](O)[C@]12C	–	–	human, plasma	baseline	–	Cmin	0.112 ± 0.027 µM
CCO[C@H]1CCN(Cc2c(OC)cc(C)c3[nH]ccc23)[C@H](c2ccc(C(=O)O)cc2)C1	–	–	healthy volunteers, plasma	oral, 200 mg single dose, geometric mean	–	total half-life	19.6 h
CCN1/C(=C/C(C)=O)Sc2ccc(F)cc21	–	–	cynomolgus monkey	oral, 30 mg/kg, 2 h post-dose	baseline: pre-dose	systolic blood pressure change	97.8 ± 3.1%
NC[C@@]1(CC(=O)O)[C@@H]2CC[C@H]3C[C@@H]2[C@@H]1C3	–	–	human, normal renal function, plasma	oral, 20 mg single dose, geometric mean	–	elimination rate constant	0.197 h⁻¹
CN(C)C(=N)N=C(N)N	–	item: thirst	healthy men	oral, dose not given, 8 days, treatment-emergent, crossover trial	–	subjects with adverse event	0%
CC/C(=C(\c1ccccc1)c1ccc(OCCN(C)C)cc1)c1ccccc1	–	–	immature female Sprague-Dawley rat	oral, dose not given, 4 days once daily, uterotrophic	baseline: vehicle	uterine weight	increased
O=C(Nc1nc2cccc(-c3ccc(CN4CCS(=O)(=O)CC4)cc3)n2n1)C1CC1	–	item: lipase increased	human rheumatoid arthritis patients	oral, 200 mg once daily, 4 weeks, regardless of relatedness	–	treatment-emergent adverse events	0%
O=C(O)c1cccc(C(=O)O)c1	–	–	water	303.0 K	–	apparent standard dissolution enthalpy	32.6 kJ/mol
CNc1cc[n+](CCNC(=O)c2ccn3c(-c4c(C)noc4C)cnc3c2)cc1.[Cl-]	–	–	aqueous buffer	initial, pH 7	–	total organic impurities	0 % peak area
CO[C@H]1/C=C/O[C@@]2(C)Oc3c(C)c(O)c4c(O)c(c(/C=N/N5CCN(C)CC5)c(O)c4c3C2=O)NC(=O)/C(C)=C\C=C\[C@H](C)[C@H](O)[C@@H](C)[C@@H](O)[C@@H](C)[C@H](OC(C)=O)[C@@H]1C	–	–	healthy humans	oral, dose not given	–	gastrointestinal adverse events	20.8%
CCOC(=O)N1C[C@@H](c2ccc(Cl)cc2)N[C@@H](c2ccc(-c3ccccc3)cc2)C1	–	shake-flask, LC-HRMS	aqueous buffer	16 h, pH 6.8	–	solubility	< 4 µM
C=CC(=O)Nc1cc(Nc2nccc(-c3cn(C)c4ccccc34)n2)c(OC)cc1N(C)CCN(C)C	–	storage stability	human plasma	30 d, -80 °C, MQC level	–	recovery	99.8%
O=c1[nH]c(=O)n([C@@H]2O[C@H](CO)[C@@H](O)[C@@H]2F)cc1CCC[18F]	–	–	nude mice, RG2 tumour, heart	intravenous, dose not given, 2 h	–	biodistribution	0.15 ± 0.08 %ID/g
CNCCOC12CC3(C)CC(C)(CC(Cn4ncc(-c5ccc(N6CCc7cccc(C(=O)Nc8nc9ccccc9s8)c7C6)nc5C(=O)O)c4C)(C3)C1)C2	–	–	beagle dog, male, anaesthetised	intravenous bolus, 0.03 mg/kg, 105 min	baseline: baseline	heart rate change	-1%
Fc1ccc([C@@H]2COC[C@H](c3cc(Cl)cc(Cl)c3)N2)cc1	–	shake-flask, LC-HRMS	aqueous buffer	16 h, pH 6.8	–	solubility	< 4 µM
O=C(O)CCc1nc2ccccc2c2nc(Cc3ccccc3)nn12	HDAC6 ZnF-UBD domain	–	–	–	–	Kd	187 µM
FC(F)(F)c1ccc([C@@H]2COC[C@H](c3cnc(-c4ccccc4)nc3)N2)cc1	–	shake-flask, LC-HRMS	aqueous buffer	16 h, pH 6.8	–	solubility	< 4 µM
COc1cc2oc(=O)cc(C)c2cc1CCC(=O)O	HDAC6 ZnF-UBD domain	–	–	–	–	Kd	343 µM
CC[C@@H]1[C@H](F)C(=O)N[C@@H]1COc1nccc2cc(C(N)=O)c(OC)cc12	CDK7 (Homo sapiens, UniProt P50613)	ATP-site probe binding, ActivX profiling	THP-1 cell lysate	0.04 mM, Lys1 site	–	inhibition	-0.9%
CCOCc1nc(O)c(-c2nnc(Cc3ccc(Cl)cn3)o2)c(O)c1-c1c(OC)cccc1OC	–	–	rat, anaesthetised, cannulated, plasma	intravenous infusion, 100 µg/kg/min, 15 min	–	plasma concentration	15.3 µM
C=CC(=O)N1CCC([C@@H]2CCNc3c(C(N)=O)c(-c4ccc(Oc5ccccc5)cc4)nn32)CC1	–	–	healthy human volunteers	oral, dose not given	–	any treatment-emergent adverse event	14%
Cc1cc(NC2CCN(C(=O)OC3CCN(C(=O)/C=C/CN(C)C)C3)CC2)n2ncc(C(C)C)c2n1 (stereo not drawn)	–	Phase I dose escalation CTCAE v4.0, item: Hyponatremia	patients with advanced solid tumours	dose not given, TIW dosing any grade	–	patients with adverse event	18%

Structure (SMILES)	tested on	assay	test system	conditions	how to read	measurement	value
CCCCC1=NC2(CCCC2)C(=O)N1Cc1ccc(-c2ccccc2S(=O)(=O)Nc2noc(C)c2C)c(COCC)c1	–	–	healthy adult volunteers, plasma	oral, 400 mg, single dose, fed, crushed tablet	–	Cmax	8.08 µg/mL
CC[C@H](Nc1ncnc2[nH]cnc12)c1oc2ccccc2c(=O)c1-c1cccc(F)c1	–	–	human patients, plasma	oral, 600 mg twice daily, added: romidepsin 12 mg/m2	–	elimination rate constant	0.2 ± 0.0807 h⁻¹
O=C(N[C@H](Cc1c[nH]c2ccccc12)C(=O)Nc1ccncc1)c1ccc(N2CCN(c3ccc(F)c(F)c3)CC2)cc1F	–	–	Swiss Webster mouse, female, intestine	oral, 50 mg/kg, 2 h, 20% HPβCD vehicle	–	concentration	185 µM
Cc1ccc([C@@H]2O[C@H](CO)[C@@H](O)[C@H](O)[C@H]2O)cc1Cc1ccc(-c2ccc(F)cc2)s1	–	–	Japanese type 2 diabetes patients	25 mg, day 3, 24 h urine collection	baseline: baseline	urinary magnesium excretion change	-11.9 mg
CCc1cc2c(cc1N1CCC(N3CCOCC3)CC1)C(C)(C)c1[nH]c3cc(C#N)ccc3c1C2=O	–	–	ALK inhibitor-naive patients, body weight at least sample B kg	oral, 600 mg twice daily, week 6	–	average plasma concentration	852 nM
CCCCC/C=C\C/C=C\CCCCCCCC(=O)O.Cc1cc(/C=C/C#N)cc(C)c1Nc1ccnc(Nc2ccc(C#N)cc2)n1	–	–	aqueous buffer	pH 1.2	–	equilibrium solubility	0.01463 ± 0.00013 mg/mL
CN1CCc2ccc(/C=C/c3ccc4cc(C(=N)N)ccc4c3)cc2C1C1CCCCC1 (stereo not drawn)	–	–	aqueous buffer	pH 7.4	–	solubility	0.194 mg/mL
NC1(C(=O)N[C@@H](CCO)c2ccc(Cl)cc2)CCN(c2nc[nH]c3nccc2-3)CC1	–	–	metastatic CRPC patients	400 mg b.i.d., any grade, treatment-related, added: enzalutamide 160 mg daily	–	incidence of Dysgeusia	0%
Cc1cc([C@H]2C[C@H]3[C@@H](CF)SC(N)=N[C@@]3(c3ccc(F)cc3F)CO2)on1	–	–	129/SVE wild-type mouse, male	subcutaneous, 100 mg/kg, 7 h	–	CSF concentration	40 nM
Cn1cc(-c2ccc(-c3cncc(Cl)c3N3CCC4(CCNC4=O)CC3)cc2)cn1	COLO 205	gene expression, microarray, item: HIST1H4L mRNA	–	concentration not given, 6 h	baseline: untreated cells	log2 fold change	-2.05
O=[N+]([O-])c1ccc(-c2ccc(O)cc2)c2cccnc12	–	–	male ICR mouse, plasma	oral, 5 mg/kg	–	AUC(0-inf)	0.0335 µg·h/mL
CN(CC#N)C(=O)C[C@H](Nc1nc2ccccc2[nH]1)c1cccc(C(F)(F)F)c1	–	–	human	intravenous infusion, 2 mg/kg, 1 mg/mL formulation	–	apparent clearance	12.5 ± 0.71 L/h
CCOC(=O)N1C[C@@H](c2ccc(F)cc2)N[C@@H](C2CC2)C1	–	shake-flask, LC-HRMS	aqueous buffer	16 h, pH 6.8	–	solubility	> 750 µM
Nc1ncn([C@H]2C[C@H](O)[C@@H](CO)O2)c(=O)n1	–	–	mouse plasma	80 ng/mL, 3 months, -80 °C, long-term stability, no THU	–	mean deviation from nominal	7.54%
CCN1CCN(Cc2ccc(NC(=O)c3ccc(C)c(NC(=O)c4cncc(-c5cccs5)c4)c3)cc2C(F)(F)F)CC1	–	–	C57BL/6 mice, epithelial lining fluid	intraperitoneal, 10 mg/kg	–	apparent volume of distribution	6.47 L/kg
CCn1c(=O)c(-c2cc(NC(=O)Nc3ccccc3)c(F)cc2Br)cc2cnc(NC)cc21	–	item: lipase increased	healthy human, matched to moderate hepatic impairment	oral, 50 mg single dose	–	participants with grade ≥ 3 TEAE	0%
N#Cc1ccccc1[C@@H]1COCC2(CCOCC2)N1	–	shake-flask, LC-HRMS	aqueous buffer	16 h, pH 6.8	–	solubility	> 750 µM
NS(=O)(=O)c1ccc(NN=C2C(=O)Nc3ccc(C(=O)O)cc32)cc1	–	–	aqueous buffer	pH 7.4	–	solubility	0.742 mg/mL
COc1cc(Nc2ncc3c(n2)-c2ccc(Cl)cc2C(c2c(F)cccc2OC)=NC3)ccc1C(=O)O	–	item: Hypertension, grade 3	cancer patients, phase 1/2	oral, dose not given, added: pembrolizumab	–	patients with adverse event	4%
O=C1CC[C@H](N2Cc3cc(N4CCN(CC5CCN(c6ccc([C@@H]7c8ccc(O)cc8CC[C@@H]7c7ccccc7)cc6)CC5)CC4)ccc3C2=O)C(=O)N1	–	item: Headache	human	oral, 200 mg, added: dabigatran etexilate 75 mg	–	participants with adverse event	4.2%
CC(C)(C)c1ccc([C@H]2COC[C@@H](c3ccc(F)cc3)N2)cc1	–	shake-flask, LC-HRMS	aqueous buffer	16 h, pH 6.8	–	solubility	< 4 µM
Cc1ccc(Sc2ccccc2N2CCNCC2)c(C)c1	–	item: Nausea	healthy adult women	oral, 5 mg daily, 12 days	–	participants with TEAE	16.7%
CC(Sc1nc2ccccc2[nH]1)C(=O)Nc1ccc(S(N)(=O)=O)cc1 (stereo not drawn)	–	–	aqueous buffer	pH 7.4	–	solubility	0.00784 mg/mL
Clc1ccc([C@@H]2COC[C@H](c3cc(Cl)cc(Cl)c3)N2)cc1	–	shake-flask, LC-HRMS	aqueous buffer	16 h, pH 6.8	–	solubility	< 4 µM
CCC[C@H]1CC[C@H](c2ccc(C#N)cc2)CC1	–	–	Sprague-Dawley rat, female, placenta	1000 ng/mL in perfusate, 50 (unit not given), middle dose, mixture of 21 LCMs	–	placental accumulation	172 ± 76.5 ng/g

Excerpt of the above:
Structure (SMILES)	tested on	assay	test system	conditions	how to read	measurement	value
CC(C)(C)c1ccc([C@H]2COC[C@@H](c3ccc(F)cc3)N2)cc1	–	shake-flask, LC-HRMS	aqueous buffer	16 h, pH 6.8	–	solubility	< 4 µM
CNCCOC12CC3(C)CC(C)(CC(Cn4ncc(-c5ccc(N6CCc7cccc(C(=O)Nc8nc9ccccc9s8)c7C6)nc5C(=O)O)c4C)(C3)C1)C2	–	–	beagle dog, male, anaesthetised	intravenous bolus, 0.03 mg/kg, 105 min	baseline: baseline	heart rate change	-1%
C[C@H](CCC(=O)NCC(=O)O)[C@H]1CC[C@H]2[C@@H]3CC[C@@H]4C[C@H](OS(=O)(=O)O)CC[C@]4(C)[C@H]3C[C@H](O)[C@]12C	–	–	human, plasma	baseline	–	Cmin	0.112 ± 0.027 µM
CO[C@H]1/C=C/O[C@@]2(C)Oc3c(C)c(O)c4c(O)c(c(/C=N/N5CCN(C)CC5)c(O)c4c3C2=O)NC(=O)/C(C)=C\C=C\[C@H](C)[C@H](O)[C@@H](C)[C@@H](O)[C@@H](C)[C@H](OC(C)=O)[C@@H]1C	–	–	healthy humans	oral, dose not given	–	gastrointestinal adverse events	20.8%
